# Published values pooled from the literature.
# ± marks the error that the study gave.
# BCHE: Cholinesterase (BCHE, Equus caballus, UniProt P81908)
# Chain of UniProt P81908 (whole entry, looked up): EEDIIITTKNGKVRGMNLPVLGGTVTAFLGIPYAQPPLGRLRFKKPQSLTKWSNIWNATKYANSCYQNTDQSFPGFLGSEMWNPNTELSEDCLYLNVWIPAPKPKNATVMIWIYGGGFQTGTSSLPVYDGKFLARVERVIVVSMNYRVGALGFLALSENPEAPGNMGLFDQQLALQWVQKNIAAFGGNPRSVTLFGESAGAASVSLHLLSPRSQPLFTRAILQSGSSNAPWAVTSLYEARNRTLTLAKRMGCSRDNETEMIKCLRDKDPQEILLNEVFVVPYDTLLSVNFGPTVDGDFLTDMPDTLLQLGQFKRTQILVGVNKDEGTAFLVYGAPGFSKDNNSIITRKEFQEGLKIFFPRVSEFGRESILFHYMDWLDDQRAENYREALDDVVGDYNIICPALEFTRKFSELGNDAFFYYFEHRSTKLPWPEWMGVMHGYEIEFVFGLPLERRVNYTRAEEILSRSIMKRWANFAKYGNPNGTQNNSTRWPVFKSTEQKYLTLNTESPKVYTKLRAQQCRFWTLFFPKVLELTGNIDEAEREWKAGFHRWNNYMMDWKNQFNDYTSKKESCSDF
# HTR2C: 5-hydroxytryptamine receptor 2C (HTR2C, Homo sapiens, UniProt P28335)
# Chain of UniProt P28335 (whole entry, looked up): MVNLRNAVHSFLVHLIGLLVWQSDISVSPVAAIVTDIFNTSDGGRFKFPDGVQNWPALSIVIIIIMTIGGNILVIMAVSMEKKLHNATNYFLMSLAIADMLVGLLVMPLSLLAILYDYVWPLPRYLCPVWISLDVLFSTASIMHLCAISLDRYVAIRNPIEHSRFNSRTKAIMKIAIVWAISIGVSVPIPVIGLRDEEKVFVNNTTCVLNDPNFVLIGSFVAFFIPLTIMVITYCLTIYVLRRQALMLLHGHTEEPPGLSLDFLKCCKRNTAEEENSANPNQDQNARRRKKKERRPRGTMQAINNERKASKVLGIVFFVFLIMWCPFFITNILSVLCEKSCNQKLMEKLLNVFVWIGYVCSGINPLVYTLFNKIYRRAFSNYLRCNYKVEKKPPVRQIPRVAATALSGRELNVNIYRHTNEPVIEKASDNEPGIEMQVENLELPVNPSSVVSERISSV
# Chain of UniProt Q14432 (whole entry, looked up): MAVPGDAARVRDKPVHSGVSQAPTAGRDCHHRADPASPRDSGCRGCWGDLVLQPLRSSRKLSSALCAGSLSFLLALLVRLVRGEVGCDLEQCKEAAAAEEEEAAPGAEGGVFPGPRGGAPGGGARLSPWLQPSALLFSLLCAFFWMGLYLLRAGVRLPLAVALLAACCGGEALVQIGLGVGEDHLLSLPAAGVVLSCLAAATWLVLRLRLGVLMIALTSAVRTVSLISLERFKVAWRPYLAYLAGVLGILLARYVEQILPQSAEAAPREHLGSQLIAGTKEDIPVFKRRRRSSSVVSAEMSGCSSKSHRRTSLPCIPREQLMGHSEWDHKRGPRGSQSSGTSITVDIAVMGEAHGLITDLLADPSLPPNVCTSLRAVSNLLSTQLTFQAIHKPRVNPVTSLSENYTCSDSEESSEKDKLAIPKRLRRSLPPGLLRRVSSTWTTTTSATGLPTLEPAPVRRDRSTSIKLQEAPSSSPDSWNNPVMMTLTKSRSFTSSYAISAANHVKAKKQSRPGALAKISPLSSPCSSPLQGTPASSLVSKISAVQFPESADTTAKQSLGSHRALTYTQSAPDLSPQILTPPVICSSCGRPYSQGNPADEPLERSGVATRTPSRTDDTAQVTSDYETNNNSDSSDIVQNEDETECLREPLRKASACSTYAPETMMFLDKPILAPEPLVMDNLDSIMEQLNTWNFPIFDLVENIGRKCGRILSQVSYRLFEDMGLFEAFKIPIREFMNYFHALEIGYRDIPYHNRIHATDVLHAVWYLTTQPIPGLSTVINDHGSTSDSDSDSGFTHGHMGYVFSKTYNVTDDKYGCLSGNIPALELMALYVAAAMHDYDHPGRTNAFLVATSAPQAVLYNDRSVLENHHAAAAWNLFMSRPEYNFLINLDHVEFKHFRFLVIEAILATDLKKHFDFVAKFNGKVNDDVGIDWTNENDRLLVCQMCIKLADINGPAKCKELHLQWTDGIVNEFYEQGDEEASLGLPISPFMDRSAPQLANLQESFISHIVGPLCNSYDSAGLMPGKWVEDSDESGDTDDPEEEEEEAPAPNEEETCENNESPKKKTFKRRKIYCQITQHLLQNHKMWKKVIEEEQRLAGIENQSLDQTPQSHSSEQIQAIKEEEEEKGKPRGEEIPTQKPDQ
# Chain of UniProt P28223 (whole entry, looked up): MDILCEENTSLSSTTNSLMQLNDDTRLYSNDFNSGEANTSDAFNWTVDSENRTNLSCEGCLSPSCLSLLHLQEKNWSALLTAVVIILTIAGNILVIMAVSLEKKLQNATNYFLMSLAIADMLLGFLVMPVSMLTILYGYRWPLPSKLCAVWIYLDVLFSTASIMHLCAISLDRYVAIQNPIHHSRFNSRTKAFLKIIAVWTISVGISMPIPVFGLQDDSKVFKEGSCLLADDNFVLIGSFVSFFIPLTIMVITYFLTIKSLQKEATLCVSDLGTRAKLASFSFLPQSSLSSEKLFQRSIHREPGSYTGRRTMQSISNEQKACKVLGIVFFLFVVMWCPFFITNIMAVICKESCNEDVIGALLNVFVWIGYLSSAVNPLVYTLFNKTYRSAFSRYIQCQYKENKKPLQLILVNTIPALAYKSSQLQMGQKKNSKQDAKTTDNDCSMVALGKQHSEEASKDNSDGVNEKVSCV
# Chain of UniProt P15735 (whole entry, looked up): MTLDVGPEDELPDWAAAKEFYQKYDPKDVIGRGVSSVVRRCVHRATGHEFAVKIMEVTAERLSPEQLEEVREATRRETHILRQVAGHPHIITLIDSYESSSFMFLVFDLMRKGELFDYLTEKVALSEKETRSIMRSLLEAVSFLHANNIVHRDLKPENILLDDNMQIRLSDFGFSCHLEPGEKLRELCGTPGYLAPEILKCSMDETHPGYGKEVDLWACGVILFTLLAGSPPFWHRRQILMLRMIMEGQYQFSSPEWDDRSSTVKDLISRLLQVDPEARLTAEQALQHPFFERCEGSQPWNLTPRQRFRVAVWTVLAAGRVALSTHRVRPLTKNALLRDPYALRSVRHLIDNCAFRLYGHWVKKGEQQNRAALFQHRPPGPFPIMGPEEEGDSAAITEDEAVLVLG
# Chain of UniProt Q13572 (whole entry, looked up): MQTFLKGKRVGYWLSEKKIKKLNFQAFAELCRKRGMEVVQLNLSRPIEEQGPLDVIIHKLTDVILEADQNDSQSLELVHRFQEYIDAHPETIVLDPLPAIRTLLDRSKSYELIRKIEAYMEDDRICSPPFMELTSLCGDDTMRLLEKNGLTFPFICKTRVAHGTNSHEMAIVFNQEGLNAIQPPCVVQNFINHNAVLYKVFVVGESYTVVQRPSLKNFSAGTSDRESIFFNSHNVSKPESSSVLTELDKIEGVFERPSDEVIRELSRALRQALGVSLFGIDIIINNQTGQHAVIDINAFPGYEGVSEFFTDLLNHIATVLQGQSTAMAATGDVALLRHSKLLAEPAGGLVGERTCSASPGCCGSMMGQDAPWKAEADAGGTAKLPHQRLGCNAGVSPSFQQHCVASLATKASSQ
# Chain of UniProt Q08881 (whole entry, looked up): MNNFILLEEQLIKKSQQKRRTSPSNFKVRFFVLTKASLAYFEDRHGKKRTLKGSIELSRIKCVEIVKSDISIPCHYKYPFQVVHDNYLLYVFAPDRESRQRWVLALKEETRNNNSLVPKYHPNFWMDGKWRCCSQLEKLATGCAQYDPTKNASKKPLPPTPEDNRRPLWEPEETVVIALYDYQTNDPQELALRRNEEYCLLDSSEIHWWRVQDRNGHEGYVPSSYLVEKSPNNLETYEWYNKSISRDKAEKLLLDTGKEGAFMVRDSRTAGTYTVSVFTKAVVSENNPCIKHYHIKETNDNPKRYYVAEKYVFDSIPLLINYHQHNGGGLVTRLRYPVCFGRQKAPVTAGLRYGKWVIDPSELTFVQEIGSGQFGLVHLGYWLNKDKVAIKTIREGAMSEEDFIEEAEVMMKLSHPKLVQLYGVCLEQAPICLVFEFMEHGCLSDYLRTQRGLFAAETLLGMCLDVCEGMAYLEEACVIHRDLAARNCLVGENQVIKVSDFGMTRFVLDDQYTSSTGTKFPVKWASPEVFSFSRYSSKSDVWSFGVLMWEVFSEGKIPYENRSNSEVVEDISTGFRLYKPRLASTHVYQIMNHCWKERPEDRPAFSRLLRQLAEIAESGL
# Chain of UniProt P21917 (whole entry, unmodified, looked up): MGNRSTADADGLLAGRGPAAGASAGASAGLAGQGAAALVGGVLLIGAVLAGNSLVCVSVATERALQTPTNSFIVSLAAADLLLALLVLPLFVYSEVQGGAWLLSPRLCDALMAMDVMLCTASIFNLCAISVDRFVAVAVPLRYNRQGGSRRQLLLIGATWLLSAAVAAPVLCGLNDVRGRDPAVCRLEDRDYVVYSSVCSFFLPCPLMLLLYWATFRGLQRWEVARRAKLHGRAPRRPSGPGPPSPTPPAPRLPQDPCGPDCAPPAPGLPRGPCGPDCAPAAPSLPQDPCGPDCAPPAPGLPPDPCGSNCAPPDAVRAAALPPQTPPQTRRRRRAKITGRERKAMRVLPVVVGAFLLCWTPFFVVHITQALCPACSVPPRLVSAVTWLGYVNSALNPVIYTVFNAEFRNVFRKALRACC
# Chain of UniProt P30411 (whole entry, looked up): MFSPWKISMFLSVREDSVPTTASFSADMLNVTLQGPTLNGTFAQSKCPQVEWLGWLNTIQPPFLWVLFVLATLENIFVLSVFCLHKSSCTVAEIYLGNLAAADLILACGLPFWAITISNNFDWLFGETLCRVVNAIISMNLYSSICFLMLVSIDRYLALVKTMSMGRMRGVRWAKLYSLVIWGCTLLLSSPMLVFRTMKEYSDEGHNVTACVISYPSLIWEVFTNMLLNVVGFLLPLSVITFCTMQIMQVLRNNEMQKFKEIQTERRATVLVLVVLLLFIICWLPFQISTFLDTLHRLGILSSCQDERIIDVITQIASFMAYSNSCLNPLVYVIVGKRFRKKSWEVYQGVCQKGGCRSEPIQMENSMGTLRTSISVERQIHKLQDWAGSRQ
SMILES,target,test,test system,conditions,inhibition
N[C@H](C(=O)N1CCCC1)C1CCN(c2nccc3c(-c4ncc(Cl)cc4Cl)cccc23)CC1,AMPA receptor,"binding, radioligand binding",,10 µM,-6%
Cc1ccc2c(n1)c(-c1cccc(S(C)(=O)=O)c1)c(C)n2C/C(F)=C/CN,"BDKRB2 (Homo sapiens, UniProt P30411)","ligand displacement, radioligand",,10 µM,3%
O=C(CN1CN(c2ccccc2)C2(CCN(C(=O)c3cnc4[nH]ncc4c3)CC2)C1=O)NCC(F)(F)F,"EGFR (Homo sapiens, UniProt P00533, del747-752/P753S)",inhibitor,,concentration not given,< 50%
OC[C@H]1O[C@@H](Oc2cccc(-c3ccccc3)c2)[C@H](O)[C@@H](O)[C@H]1O,"Adhesin FmlH, lectin domain (Escherichia coli, UniProt Q1RBS0)","binding to desialylated mucin, ELISA competition",UPEC UTI89,"10 µM, with: desialylated bovine submaxillary mucin",7.8 ± 5.5%
O=S(=O)(F)CCc1cn(-c2ccc(OC(F)(F)F)cc2)nn1,BCHE,Ellman,horse,20 µM,45.1 ± 1.8%
CN(C)[C@H]1C[C@@]23CC[C@@]4(O2)C(=CC[C@]2(C)[C@@H](c5ccc6ccncc6c5)CC[C@H]24)C=C3[C@@H](O)[C@@H]1O,"Inositol-tetrakisphosphate 1-kinase (Homo sapiens, UniProt Q13572)","ATP probe labelling, inhibitor, KiNativ profiling",,1 µM,12%
C[C@H](NCc1ccc(-c2ccc(C(F)(F)F)cc2)cc1)C(N)=O,"adenosine transporter, guinea pig","binding, radioligand binding",biochemical,"1 µM, with: [3H]nitrobenzylthioinosine 0.50 nM",5%
CC(=O)NC[C@@H]1[C@@H](O)C[C@H]2[C@H](O)C[C@@H](CO)N12,Spodoptera litura β-N-acetylglucosaminidase,,crude enzyme,"1.71 µM, run 1, with: p-nitrophenyl GlcNAc",76.7%
CS(C)(=O)=Nc1ccc(-c2ccc(-c3nc4cc(O[C@@H]5CO[C@H]6[C@@H]5OC[C@H]6O)[nH]c4cc3F)cc2)cc1,L-type Ca2+ channel dihydropyridine site,binding,,10 µM,1%
O=C1c2ccccc2CCCN1CCCCN1CCN(c2cccc(Cl)c2Cl)CC1,HTR2C,radioligand binding,,"concentration not given, with: [3H]mesulergine",95.5%
Cc1cc(Nc2nc(C[C@@]3(C(=O)O)CCN(Cc4cccc(Cl)c4F)[C@H](C)C3)cc(C)c2F)[nH]n1,"HTR2A (Homo sapiens, UniProt P28223)",inhibitor,,10 µM,-4.04%
Cc1cc(-c2ccc3ccccc3c2)nnc1NCCN1CCN(C)CC1,"PDE3A (Homo sapiens, UniProt Q14432)",enzyme activity,,concentration not given,negative
COc1ccc(F)cc1S(=O)(=O)Nc1cnc2c(c1)C(=O)NCCO2,HTR2C,"ligand displacement, radioligand",,10 µM,-4%
CC(C)[C@H]1NC(=O)C[C@H]2/C=C/CCSSC[C@@H](NC1=O)C(=O)N[C@H](Cc1cccc3ccccc13)C(=O)NCC(=O)O2,"PHKG2 (Homo sapiens, UniProt P15735)","enzyme activity, inhibitor",,10 µM,1%
CN[C@@H]1[C@H](O)[C@H](NC)[C@H]2O[C@]3(O)[C@H](O[C@@H]2[C@H]1O)O[C@H](C)C[C@H]3NC(=O)Cc1ccc(Cl)cn1,"DRD4 (Homo sapiens, UniProt P21917, del265-296)","ligand displacement, radioligand",,10 µM,2%
CCCN,BCHE,"enzyme activity, inhibitor, Ellman",,20 µM,38.1%
CN(/N=C/c1ccccc1C(=O)O)c1nc(-c2ccccc2Cl)cs1,"ITK (Homo sapiens, UniProt Q08881)","enzyme activity, inhibitor",,1 µM,38.6%
O=[N+]([O-])c1ccc(-n2cc(CCS(=O)(=O)F)nn2)cc1,BCHE,"enzyme activity, inhibitor, Ellman's method",horse serum BuChE,20 µM,65.5 ± 0.4%
CCC1CC(c2ccc(C(=O)O)cc2C)=NN1c1ccc(C#N)c(Cl)c1 (stereo not drawn),"SETD2 (Homo sapiens, UniProt Q9BYW2)","enzyme activity, inhibitor",,10 µM,17%
CCc1cccc(CC)c1-n1cc(CCS(=O)(=O)F)nn1,BCHE,Ellman,horse,20 µM,83 ± 1.1%
O=C(O)c1ccccc1/C=N/Nc1nc(-c2ccccc2Cl)cs1,"CSNK1G1 (Homo sapiens, UniProt Q9HCP0)",kinase activity,,1 µM,6.83%
